Published values gathered from unrelated publications.
Values joined by “and” are separate records of one study, mostly repeats; a detail may differ. ± marks the error that the study gave.

Structure (SMILES) = O=C(C[C@@H](C(F)F)n1ccc(F)n1)N1CCC(O)(Cn2cnc3c(cnn3-c3ccc(F)cc3)c2=O)CC1; target or system = CHP-212 USP7 V517F knock-in clone; assay = SRB; setting = 0.08231 µM; endpoint = viability; result = 93.6%
Structure (SMILES) = COc1cc(/C=C/C(=O)N2CCC=CC2=O)cc(OC)c1OC; target or system = MDA-MB-468; assay = quantitative RT-PCR, measured: GLUT1; setting = 30 µM, 8 h; how to read = reference: untreated cells; endpoint = mRNA level; result = 75.6 ± 5.9%
Structure (SMILES) = O=C(/C=C/C=C/C=C/C1CCCCC1)NC1=C[C@@](O)(/C=C/C=C/C=C/C(=O)NC2=C(O)CCC2=O)[C@@H]2O[C@@H]2C1=O; target or system = NCI-H1435; assay = cell growth, CellTiter-Glo; setting = 78 h; endpoint = GI50; result = 15.7 µM
Structure (SMILES) = Cc1nc(Nc2ncc(C(=O)Nc3c(C)cccc3Cl)s2)cc(N2CC[C@H](O)C2)n1; target or system = PEER; assay = cell proliferation, CellTiter-Glo; setting = 10 µM, 72 h; endpoint = inhibition; result = 24%
Structure (SMILES) = C[C@H]1[C@@H](O)O[C@@H]2O[C@@]3(C)CC[C@H]4[C@H](C)CC[C@@H]1[C@@]24OO3; target or system = KCL-22; assay = annexin V/PI flow cytometry, measured: annexin V-/PI+; setting = 3.2 µM, 24 h; endpoint = necrotic cells; result = 0%
Structure (SMILES) = CC(=O)N[C@@H](CCCCN)C(=O)N[C@@H](CCCNC(=N)N)C(=O)N[C@H](C(=O)N[C@@H](Cc1c[nH]cn1)C(=O)N[C@@H](Cc1ccccc1)C(N)=O)C(C)C; target or system = HeLa cells; assay = calcium release, Fluo-4 imaging; setting = 100 µM; endpoint = responder cells; result = 0%
Structure (SMILES) = CCCCCCCCCCCCCCCCCCOc1ccc(CC(=O)OCC[N+](CC)(CC)CC)cc1; target or system = NSCLC panel (nine cell lines); setting = 10 µM; endpoint = mean growth inhibition; result = 17.9%
Structure (SMILES) = Clc1nc(NCc2ccco2)c2[nH]cnc2n1; target or system = iPSC-derived cardiomyocytes; assay = RNA-seq, measured: chr2 exon ending 242095027; setting = unit not given; how to read = reference: DMSO minus compound; endpoint = ΔPSI; result = -0.212
Structure (SMILES) = O=C1NC(=O)/C(=C/c2ccc3nccc(-c4ccncc4)c3c2)S1; target or system = SNU-1040; setting = 0.33 µM, 72 h, 100% DMSO; how to read = reference: vehicle; endpoint = cell growth; result = 91%
Structure (SMILES) = CC(=O)c1nn(-c2ccc(Cl)cc2)/c(=N/N=C(\C)c2ccc(NC(=O)c3ccc(C)cc3)cc2)s1; target or system = MCF7; setting = 1.25 µM; endpoint = viability; result = 17.9%
Structure (SMILES) = C[C@H](Nc1ccc2c(c1)OCCn1cc(N3C(=O)OC[C@H]3C(F)F)nc1-2)C(N)=O; target or system = SNU-1076; assay = cell growth, CellTiter-Glo; setting = 120 h; endpoint = Hill coefficient; result = 0.522
Structure (SMILES) = O=c1ccn([C@@H]2O[C@H](CO)[C@@H](O)[C@H]2O)c(=O)[nH]1; target or system = activated human T cells; test system = human; setting = 10 µM; endpoint = T cell proliferation; result = 98.2% and 97.1% and 107% and 106% and 101%
Structure (SMILES) = Nc1cccc2c1C(=O)N(C1CCC(=O)NC1=O)C2=O (stereo not drawn); target or system = RPMI-8226; assay = flow cytometry, measured: CD29; setting = concentration not given; how to read = reference: comparator compound alone; endpoint = surface marker level; result = 34%
Structure (SMILES) = C=CCOc1c(C)c(O)c(C(=O)/C=C/c2ccccc2)c(OC)c1C; target or system = KKU-M213; assay = SRB; how to read = reference: normal over KKU-M213 IC50; endpoint = selectivity index; result = 1.01
Structure (SMILES) = CCCCN1C[C@H](O)[C@@H](O)[C@@H](O)[C@H]1CO; target or system = sample I patient fibroblasts; assay = acidic compartment staining, LysoTracker Red imaging; setting = 216 h; endpoint = IC50; result = 34.8 µM
Structure (SMILES) = O=C(NCc1cc[nH]n1)c1ccc(C2CCCCC2)cc1; assay = liver microsome stability; test system = mouse liver microsomes; setting = 1 µM; endpoint = hepatic clearance; result = 82 mL/min/kg
Structure (SMILES) = Cn1cc(-c2ccc(-c3cncc(Cl)c3N3CCC4(CCNC4=O)CC3)cc2)cn1; target or system = COLO 205; assay = gene expression, microarray, measured: KCNN4 mRNA; setting = concentration not given, 6 h; how to read = reference: untreated cells; endpoint = log2 fold change; result = 2.15
Structure (SMILES) = CCn1cc(-c2cc(Cn3ccnc3)cc3c2CCN([C@H](c2cc(OC)ccn2)C2CC2)C3=O)c(C(F)(F)F)n1; target or system = CAL-27; assay = cell growth, inhibitor; setting = 120 h; endpoint = EC50; result = 0.0394 µM
Structure (SMILES) = CN(C)CCCC1(c2ccc(F)cc2)OCc2cc(C#N)ccc21 (stereo not drawn); target or system = SH-SY5Y; assay = neurite outgrowth inhibition, phase-contrast imaging; setting = 24 h, nominal concentration; endpoint = EC10; result = 10.4 µM
Structure (SMILES) = COc1cnc2cccc(N3CCc4c(cc(Cn5ccnc5C)cc4-c4cn(C)nc4C(F)(F)F)C3=O)c2c1; target or system = HMCB; assay = cell growth, inhibitor; setting = 120 h; endpoint = EC50; result = > 30 µM
Structure (SMILES) = CC(C(=O)Nc1ccc([C@H]2[C@@H](F)[C@@H](F)C[C@@H](F)[C@H]2F)cc1)n1cncn1 (stereo partly drawn); test system = rat liver microsomes; setting = 1 µM; endpoint = hepatic clearance; result = 6.1 mL/min/kg
